Measured values pooled from the literature.
Protocols differ between the studies behind these lines.

`COC(=O)N[C@H](C(=O)N1CCC[C@H]1c1nc(-c2ccc(-c3ccc(-c4c[nH]c([C@@H]5CCCN5C(=O)[C@@H](NC(=O)OC)C(C)C)n4)cc3)cc2)c[nH]1)C(C)C` has a CL/F reduction of ~10% (human; oral, dose not given, with: pegIFN/ribavirin; relative to: asunaprevir combination).
With `CCc1cc(/C(C)=N/OCc2ccc(C3CCCCC3)c(C(F)(F)F)c2)ccc1CN1CC(C(=O)O)C1` the CL/F was 1.8 L/h (healthy human; oral, 4 mg, geometric mean, with: fluconazole steady state).
For `CNC(=O)c1ccc(-c2cnc3ncc(Cc4ccc5ncccc5c4)n3n2)cc1F`, the CL/F was 35.4 L/h (healthy human subjects, plasma; oral, 400 mg, geometric mean, alone).
The CL/F ratio of `C=C[C@@H]1C[C@]1(NC(=O)[C@@H]1C[C@@H](Oc2ncc(OC)c3ccc(Cl)cc23)CN1C(=O)[C@@H](NC(=O)OC(C)(C)C)C(C)(C)C)C(=O)NS(=O)(=O)C1CC1` is reported as 0.6 fold (human; oral, baseline AST 123.6 U/L; relative to: median baseline AST 52 U/L).
The CL/F of `Cc1cccc(C)c1OCC(=O)N[C@@H](Cc1ccccc1)[C@@H](O)C[C@H](Cc1ccccc1)NC(=O)[C@H](C(C)C)N1CCCNC1=O` is reported as 1.18 mL/min/kg (human, HIV+/HCV+ with cirrhosis, plasma; total drug, steady state, median, with: lopinavir/ritonavir twice daily).
For `CCCC[C@H](NC(C)=O)C(=O)N[C@H]1CCC(=O)NC[C@@H](C(=O)N[C@@H](Cc2c[nH]c3ccccc23)C(N)=O)NC(=O)[C@H](CCCNC(=N)N)NC(=O)[C@@H](Cc2ccccc2)NC(=O)[C@H](Cc2c[nH]cn2)NC1=O`, the CL/F was 19.6 L/h (healthy human, both sexes, plasma; subcutaneous, 1.0 mg once daily, day 1, geometric mean).
The CL/F of `CC[C@H](C)[C@@H]1NC(=O)[C@H](CCCNC(=N)N)NC(=O)[C@H](CC(=O)O)NC(=O)[C@H](CC(C)C)NC(=O)[C@H](CCCCN)NC(=O)[C@H](CC(C)C)NC(=O)CNC(=O)[C@H](Cc2ccccc2)NC(=O)[C@@H](NC(=O)CNC(=O)[C@H](CCCCN)NC(=O)[C@H](CO)NC(=O)[C@H](CC(C)C)NC(=O)CNC(=O)[C@H](CCCCN)NC(=O)[C@H](CCCCN)NC(=O)[C@H](CC(N)=O)NC(=O)[C@H](C)NC(=O)CNC(=O)[C@H](CCCCN)NC(=O)[C@H](Cc2ccc(O)cc2)NC(=O)[C@H](CCCCN)NC(=O)[C@H](CCCNC(=N)N)NC(=O)[C@H](C)NC(=O)[C@H](CC(N)=O)NC(=O)[C@@H]2CCCN2C(=O)[C@H](Cc2c[nH]cn2)NC(=O)[C@H](CCC(=O)O)NC(=O)[C@H](CCC(N)=O)NC(=O)CNC(=O)[C@@H]2CCCN2)CSSC[C@@H](C(=O)O)NC(=O)CNC(=O)[C@H](CC(C)C)NC(=O)CNC(=O)[C@H](CO)NC(=O)[C@H](CCSC)NC(=O)[C@H](CO)NC(=O)CNC1=O` is reported as 104 mL/min/kg (ECLA; human, plasma; subcutaneous, 15 µg/kg once daily, day 1).
For `CC(C)NC[C@@H](C(=O)N1CCN(c2ncnc3c2[C@H](C)C[C@H]3O)CC1)c1ccc(Cl)cc1`, the CL/F was 310 L/h (human, hepatic impairment Mild (Child-Pugh), plasma; oral, 100 mg single, geometric mean).

Excerpt of the above:
For `CCCC[C@H](NC(C)=O)C(=O)N[C@H]1CCC(=O)NC[C@@H](C(=O)N[C@@H](Cc2c[nH]c3ccccc23)C(N)=O)NC(=O)[C@H](CCCNC(=N)N)NC(=O)[C@@H](Cc2ccccc2)NC(=O)[C@H](Cc2c[nH]cn2)NC1=O`, the CL/F was 19.6 L/h (healthy human, both sexes, plasma; subcutaneous, 1.0 mg once daily, day 1, geometric mean).
